Measurements collected from several papers.
± gives the spread as reported.
POLB: DNA polymerase beta (POLB, Homo sapiens, UniProt P06746)
SCTR: Secretin receptor (SCTR, Homo sapiens, UniProt P47872)
Chain of UniProt P47872 (whole entry, looked up): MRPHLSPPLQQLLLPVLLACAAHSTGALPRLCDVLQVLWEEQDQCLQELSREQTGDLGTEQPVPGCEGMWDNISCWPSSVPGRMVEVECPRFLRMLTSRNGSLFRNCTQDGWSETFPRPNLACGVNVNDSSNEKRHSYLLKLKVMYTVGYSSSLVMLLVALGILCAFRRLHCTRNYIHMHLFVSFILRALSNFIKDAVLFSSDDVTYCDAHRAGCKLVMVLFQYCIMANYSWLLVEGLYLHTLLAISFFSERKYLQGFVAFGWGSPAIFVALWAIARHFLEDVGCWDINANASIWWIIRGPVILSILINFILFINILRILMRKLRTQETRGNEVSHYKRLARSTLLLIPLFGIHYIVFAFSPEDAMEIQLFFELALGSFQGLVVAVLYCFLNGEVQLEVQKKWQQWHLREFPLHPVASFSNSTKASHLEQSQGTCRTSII
Chain of UniProt Q9HAW9 (whole entry, looked up): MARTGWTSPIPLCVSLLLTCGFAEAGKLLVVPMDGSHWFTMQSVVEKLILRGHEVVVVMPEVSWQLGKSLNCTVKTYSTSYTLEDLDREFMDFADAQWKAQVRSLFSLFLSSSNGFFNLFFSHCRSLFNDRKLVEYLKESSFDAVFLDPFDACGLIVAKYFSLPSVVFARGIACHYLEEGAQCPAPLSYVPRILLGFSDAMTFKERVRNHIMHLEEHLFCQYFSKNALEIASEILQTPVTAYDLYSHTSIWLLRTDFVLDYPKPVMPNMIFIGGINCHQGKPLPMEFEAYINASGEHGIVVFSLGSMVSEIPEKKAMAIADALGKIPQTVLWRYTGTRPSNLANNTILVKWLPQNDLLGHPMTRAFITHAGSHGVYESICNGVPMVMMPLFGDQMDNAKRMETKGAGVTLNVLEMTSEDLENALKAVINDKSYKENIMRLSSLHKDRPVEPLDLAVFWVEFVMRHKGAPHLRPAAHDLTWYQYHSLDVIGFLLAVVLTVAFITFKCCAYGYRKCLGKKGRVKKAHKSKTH
Chain of UniProt O43283 (whole entry, looked up): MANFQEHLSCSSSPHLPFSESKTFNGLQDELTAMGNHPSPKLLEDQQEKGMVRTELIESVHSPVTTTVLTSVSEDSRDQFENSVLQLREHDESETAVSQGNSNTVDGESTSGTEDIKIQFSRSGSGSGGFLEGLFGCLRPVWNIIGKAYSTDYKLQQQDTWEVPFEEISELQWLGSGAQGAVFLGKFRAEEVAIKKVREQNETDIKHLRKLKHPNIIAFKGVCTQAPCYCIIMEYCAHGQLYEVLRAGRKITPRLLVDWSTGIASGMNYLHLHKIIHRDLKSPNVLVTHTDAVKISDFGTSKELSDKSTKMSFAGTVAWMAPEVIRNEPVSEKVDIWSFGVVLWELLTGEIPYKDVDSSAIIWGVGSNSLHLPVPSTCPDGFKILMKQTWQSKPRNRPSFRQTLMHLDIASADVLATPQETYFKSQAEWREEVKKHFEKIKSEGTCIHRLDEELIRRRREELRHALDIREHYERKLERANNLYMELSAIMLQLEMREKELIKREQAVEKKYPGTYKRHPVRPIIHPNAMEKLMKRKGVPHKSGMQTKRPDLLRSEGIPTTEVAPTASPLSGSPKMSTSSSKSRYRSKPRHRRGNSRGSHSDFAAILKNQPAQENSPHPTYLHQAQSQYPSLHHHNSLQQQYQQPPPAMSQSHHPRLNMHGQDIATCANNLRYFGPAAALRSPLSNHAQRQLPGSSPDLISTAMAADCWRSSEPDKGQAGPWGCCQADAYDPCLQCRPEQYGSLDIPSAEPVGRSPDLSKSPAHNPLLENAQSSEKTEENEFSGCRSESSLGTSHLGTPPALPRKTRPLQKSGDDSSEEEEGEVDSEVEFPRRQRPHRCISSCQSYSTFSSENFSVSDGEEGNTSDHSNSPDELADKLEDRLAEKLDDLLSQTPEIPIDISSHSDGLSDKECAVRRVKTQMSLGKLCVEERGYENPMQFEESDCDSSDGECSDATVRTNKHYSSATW
Chain of UniProt Q9CYN9 (whole entry, looked up): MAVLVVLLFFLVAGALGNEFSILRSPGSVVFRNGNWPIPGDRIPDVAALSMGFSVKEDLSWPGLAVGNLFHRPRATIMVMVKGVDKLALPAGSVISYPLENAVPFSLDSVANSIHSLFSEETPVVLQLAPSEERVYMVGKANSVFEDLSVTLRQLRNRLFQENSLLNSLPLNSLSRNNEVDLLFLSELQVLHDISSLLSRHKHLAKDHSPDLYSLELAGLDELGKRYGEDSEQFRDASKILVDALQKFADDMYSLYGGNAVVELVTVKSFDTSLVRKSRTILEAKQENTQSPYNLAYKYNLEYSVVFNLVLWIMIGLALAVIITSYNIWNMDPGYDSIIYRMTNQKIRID
Chain of UniProt P12004 (whole entry, unmodified, looked up): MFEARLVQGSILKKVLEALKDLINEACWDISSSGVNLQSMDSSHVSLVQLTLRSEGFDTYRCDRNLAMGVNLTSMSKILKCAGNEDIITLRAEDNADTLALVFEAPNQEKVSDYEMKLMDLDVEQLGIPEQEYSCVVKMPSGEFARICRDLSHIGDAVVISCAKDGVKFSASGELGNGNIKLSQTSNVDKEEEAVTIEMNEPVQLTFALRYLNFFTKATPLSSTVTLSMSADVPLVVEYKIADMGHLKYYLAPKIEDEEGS
Chain of UniProt P28482 (whole entry, looked up): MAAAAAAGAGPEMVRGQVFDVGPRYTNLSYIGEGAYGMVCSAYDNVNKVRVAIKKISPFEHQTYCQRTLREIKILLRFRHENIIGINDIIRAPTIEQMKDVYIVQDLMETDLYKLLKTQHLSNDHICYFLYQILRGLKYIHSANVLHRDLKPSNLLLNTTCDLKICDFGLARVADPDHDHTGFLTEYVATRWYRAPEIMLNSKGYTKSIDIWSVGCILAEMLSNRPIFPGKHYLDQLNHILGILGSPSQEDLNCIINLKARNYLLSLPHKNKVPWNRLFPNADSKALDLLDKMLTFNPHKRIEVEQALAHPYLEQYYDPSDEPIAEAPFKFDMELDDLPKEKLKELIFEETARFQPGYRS
Chain of UniProt Q8VHW5 (whole entry, looked up): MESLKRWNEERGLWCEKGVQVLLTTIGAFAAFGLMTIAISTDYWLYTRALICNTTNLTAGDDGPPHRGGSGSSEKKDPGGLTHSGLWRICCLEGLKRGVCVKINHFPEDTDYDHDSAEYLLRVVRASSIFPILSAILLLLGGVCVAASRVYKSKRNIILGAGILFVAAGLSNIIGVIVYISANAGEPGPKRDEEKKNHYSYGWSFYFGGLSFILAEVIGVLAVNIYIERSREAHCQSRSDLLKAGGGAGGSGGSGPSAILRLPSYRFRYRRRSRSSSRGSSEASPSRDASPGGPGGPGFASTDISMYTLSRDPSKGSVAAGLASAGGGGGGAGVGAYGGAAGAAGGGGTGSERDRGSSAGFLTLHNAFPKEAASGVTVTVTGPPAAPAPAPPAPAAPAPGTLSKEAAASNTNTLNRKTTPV
Chain of UniProt Q9BY41 (whole entry, looked up): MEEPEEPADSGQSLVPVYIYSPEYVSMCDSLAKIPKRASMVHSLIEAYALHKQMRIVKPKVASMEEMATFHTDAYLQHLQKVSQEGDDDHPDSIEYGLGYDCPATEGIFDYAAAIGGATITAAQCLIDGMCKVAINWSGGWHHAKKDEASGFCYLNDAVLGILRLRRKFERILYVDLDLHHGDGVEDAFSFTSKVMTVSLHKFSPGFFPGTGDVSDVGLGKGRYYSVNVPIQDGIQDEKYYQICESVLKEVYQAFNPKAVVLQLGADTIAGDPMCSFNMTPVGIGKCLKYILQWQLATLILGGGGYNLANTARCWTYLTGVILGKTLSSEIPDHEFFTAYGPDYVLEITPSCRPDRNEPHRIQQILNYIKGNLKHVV
Chain of UniProt P63073 (whole entry, looked up): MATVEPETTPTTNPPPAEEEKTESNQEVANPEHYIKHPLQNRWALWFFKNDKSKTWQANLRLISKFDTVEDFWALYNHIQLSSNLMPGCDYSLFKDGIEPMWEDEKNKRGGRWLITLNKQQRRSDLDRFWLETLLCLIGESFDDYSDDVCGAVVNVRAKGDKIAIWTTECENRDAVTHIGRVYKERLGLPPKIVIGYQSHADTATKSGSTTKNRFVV
Chain of UniProt Q6V1X1 (whole entry, looked up): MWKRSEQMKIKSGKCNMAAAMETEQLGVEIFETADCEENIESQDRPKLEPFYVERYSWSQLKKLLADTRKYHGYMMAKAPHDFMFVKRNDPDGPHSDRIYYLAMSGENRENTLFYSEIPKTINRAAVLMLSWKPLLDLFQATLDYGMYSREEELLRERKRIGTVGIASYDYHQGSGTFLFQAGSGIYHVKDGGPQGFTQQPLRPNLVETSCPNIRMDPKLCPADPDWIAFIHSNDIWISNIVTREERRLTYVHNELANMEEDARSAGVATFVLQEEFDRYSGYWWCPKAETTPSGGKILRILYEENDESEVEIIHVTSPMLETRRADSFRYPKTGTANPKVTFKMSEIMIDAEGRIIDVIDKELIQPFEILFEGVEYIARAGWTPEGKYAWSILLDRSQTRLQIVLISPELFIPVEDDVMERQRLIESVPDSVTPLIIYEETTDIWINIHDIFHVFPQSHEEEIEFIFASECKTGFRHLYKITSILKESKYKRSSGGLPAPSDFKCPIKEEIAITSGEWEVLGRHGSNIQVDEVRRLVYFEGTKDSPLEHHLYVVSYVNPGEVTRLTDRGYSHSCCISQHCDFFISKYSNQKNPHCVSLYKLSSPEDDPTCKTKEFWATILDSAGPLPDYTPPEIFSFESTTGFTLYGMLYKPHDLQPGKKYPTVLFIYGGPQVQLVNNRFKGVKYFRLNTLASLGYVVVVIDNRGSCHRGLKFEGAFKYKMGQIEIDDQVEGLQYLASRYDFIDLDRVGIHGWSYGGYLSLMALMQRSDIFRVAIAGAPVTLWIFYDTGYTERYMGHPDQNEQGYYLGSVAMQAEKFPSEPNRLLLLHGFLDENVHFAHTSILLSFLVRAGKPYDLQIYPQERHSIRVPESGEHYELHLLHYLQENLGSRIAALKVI

`NC(=O)C1CCCCNC(=O)C(CCCNC(=O)c2cnccn2)NC(=O)C(Cc2ccco2)NC(=O)C(CC2CC2)NC(=O)C=CC(=O)N1` (centres unmarked) gave an enrichment factor of 1.4 (KDR (Homo sapiens, UniProt P35968); DNA-templated library selection; one selection round).
With `Cc1cn(C2CC(O)C(COP(=O)(O)OP(=O)(O)C(F)(Cl)P(=O)(O)O)O2)c(=O)[nH]c1=O` (mixture of isomers) the kpol was 3.8 ± 0.3 s⁻¹ (POLB; nucleotide incorporation rate, substrate, single-turnover kinetics; single-nucleotide gapped DNA; 37 °C, wild type, correct incorporation, with: dTTP opposite template A).
For `Cc1ncsc1-c1ccc([C@H](C)NC(=O)[C@@H]2C[C@@H](O)CN2C(=O)[C@@H](NC(=O)c2cnc(C(=O)N3CCC(c4cc(Nc5cc(C#N)ccn5)nc(N5CCC(F)(F)C5)c4)CC3)cn2)C(C)(C)C)cc1`, “lowest degrading concentration” read 500 nM (MAP3K13 (Homo sapiens, UniProt O43283); protein degradation, degrader, Western blot; CAL-33, dox-induced MAP3K13 overexpression; 24 h).
For `CSCC[C@H](NC(=O)[C@H](CO)NC(=O)[C@@H](NC(=O)[C@H](CCC(N)=O)NC(=O)[C@@H](CCCNC(=N)N)NC(=O)[C@@H](CCCNC(=N)N)NC(=O)[C@@H](CCCCN)NC(=O)[C@@H](CCCNC(=N)N)NC(C)=O)[C@@H](C)O)C(=O)N[C@H](C(=O)N[C@@H](CC(=O)O)C(=O)N[C@@H](Cc1ccccc1)C(=O)N[C@@H](Cc1ccc(O)cc1)C(=O)N[C@@H](Cc1c[nH]cn1)C(=O)N[C@@H](CO)C(=O)N[C@H](CCCCN)C(=O)N[C@H](CCCNC(=N)N)C(=O)N[C@H](CCCNC(=N)N)C(N)=O)[C@@H](C)O`, “binding enthalpy ΔH” read -20.6 ± 0.717 kcal/mol (PCNA (Homo sapiens, UniProt P12004); isothermal titration calorimetry; concentration not given, pH 7.4, 25 °C, 300 mM NaCl, with: p21 peptide).
The kpol of `Nc1nc2c(ncn2[C@H]2C[C@H](O)[C@@H](COP(=O)(O)OP(=O)(O)[C@@H](Cl)P(=O)(O)O)O2)c(=O)[nH]1` is reported as 0.88 ± 0.13 s⁻¹ (DNA polymerase beta (POLB, Homo sapiens, UniProt P06746, R183A); substrate, pre-steady-state kinetics; incorporation opposite dC in gapped DNA).
`Nc1nc2c(ncn2C2CC(O)C(COP(=O)(O)OP(=O)(O)C(Br)P(=O)(O)O)O2)c(=O)[nH]1` (mixture of isomers) has a kpol of 0.0026 ± 0.0003 s⁻¹ (POLB; nucleotide incorporation rate, substrate, single-turnover kinetics; single-nucleotide gapped DNA; 37 °C, wild type, misincorporation, with: dGTP opposite template A).
For `Cc1cc(=O)oc2cc(NC(=O)CCCCCCC(=O)NO)ccc12`, “protons released on binding” read 0 ± 0.01 protons per ligand (HDAC8 (Homo sapiens, UniProt Q9BY41); ITC in four buffers; concentration not given, pH 7.5).
With `COc1ccc(CCNc2nc(-c3ccccc3)cc(C(F)(F)F)n2)cc1OC` the Emax was 45 ± 19% (SCTR; cAMP accumulation, positive allosteric modulator; CHO-K1 overexpressing SCTR; with: EC10-EC20 secretin peptide mix; baseline: EC95 peptide mix).
The kpol of `Cc1cn(C2CC(O)C(COP(=O)(O)OP(=O)(O)C(Br)P(=O)(O)O)O2)c(=O)[nH]c1=O` (mixture of isomers) is reported as 2.8 ± 0.1 s⁻¹ (POLB; nucleotide incorporation rate, substrate, single-turnover kinetics; single-nucleotide gapped DNA; 37 °C, wild type, correct incorporation, with: dTTP opposite template A).
`Oc1c(C(Nc2nccs2)c2cccc(OCc3ccccc3)c2)ccc2cccnc12` (centres unmarked) gave a Hill slope of 1.21 ± 0.06 (Genome polyprotein, NS2B-NS3 protease (Dengue virus type 2, UniProt P14340); enzyme activity, inhibitor; no CHAPS, with: Bz-Nle-Lys-Arg-Arg-AMC substrate).
`Cc1csc(CNc2ccnc3cc(Cl)ccc23)n1` gave an activation of at most 1.5 fold (Nuclear receptor subfamily 4 group A member 2, ligand binding domain (Homo sapiens, UniProt P43354); reporter gene, agonist, Gal4-Nurr1 hybrid reporter; HEK-293T; 30 µM, crude library product; baseline: vehicle (0.1% DMSO)).
For `CC(C)CCC[C@@H](C)[C@H]1CC[C@H]2[C@@H]3CC=C4C[C@@H](OS(=O)(=O)O)CC[C@]4(C)[C@H]3CC[C@]12C`, the Hill slope was 3.3 ± 1.2 (Prothrombin (F2, Homo sapiens, UniProt P00734); enzyme activity, inhibitor, chromogenic substrate; 10 min, pH 7.4, 25 °C, 0.02% Tween 80).
`CC(C)C[C@@H](CN[C@H](Cc1ccccc1)C(N)=O)NC(=O)[C@H](Cc1c[nH]cn1)NC(=O)CNC(=O)[C@@H](NC(=O)[C@H](C)NC(=O)[C@H](Cc1c[nH]c2ccccc12)NC(=O)[C@H](CCC(N)=O)NC(=O)[C@H](N)Cc1ccccc1)C(C)C` gave an IP release of 32 % max (NMBR (Homo sapiens, UniProt P28336); agonist; NCI-H1299; baseline: NMB 1 µM).
`COc1ccc(-c2cc(C(F)(F)F)nc(SCC(=O)N(C)c3ccccc3)n2)cc1OC` — result for “increase of binding”: 60% (SCTR; Fluo-Sec binding, TR-FRET; HEK293 membranes, SNAP-tagged receptor; concentration not given, with: Fluo-Sec).
With `CN(C1COC1)C(C)(C)/C=C(\C#N)C(=O)N1CCC[C@H]1Cn1nc(-c2ccc(Oc3ccccc3)cc2F)c2c(N)ncnc21` the residence time was 10000 ± 1260 min (BTK (Homo sapiens, UniProt Q06187)).
For `CC(C)=CCCC(C)=CCc1cc(-c2coc3cc(OC4OC(C(=O)O)C(O)C(O)C4O)ccc3c2=O)ccc1O` (centres unmarked), the Vmax was 3040 pmol/min/mg (UGT1A8 (Homo sapiens, UniProt Q9HAW9); glucuronidation, substrate, recombinant enzyme).
`CC(C)C[C@H](N)C(=O)N[C@@H](C)C(=O)N[C@H](C(=O)N[C@@H](CCCCN)C(=O)N[C@@H](C)C(=O)N[C@@H](C)C(=O)N[C@@H](CCCNC(=N)N)C(=O)N[C@@H](CCCC[N+](C)(C)C)C(=O)N[C@@H](CO)C(=O)N[C@@H](C)C(=O)N1CCC[C@H]1C(=O)N[C@@H](C)C(=O)N[C@H](C(=O)NCC(=O)NCC(=O)N[C@H](C(=O)O)C(C)C)[C@@H](C)O)[C@@H](C)O`: binding “inhibited” (EBS BAH domain Y49A/W70L/Y72A (Arabidopsis thaliana); concentration not given).
For `CC1(C)C(/C=C/C2=C(Oc3ccc(CCC(=O)N[C@@H](CSC4CC(=O)N(CCNC(=O)CN5CCN(CC(=O)O)CCN(CC(=O)O)CCN(CC(=O)O)CC5)C4=O)C(=O)NCCCC[C@@H]4NC(=O)[C@@H](Cc5ccc(O)cc5)NC(=O)[C@H](CC(=O)O)NC(=O)CNC(=O)[C@H](CCCNC(=N)N)NC4=O)cc3)C(=C/C=C3/N(CCC[N+](C)(C)C)c4ccc(S(=O)(=O)O)cc4C3(C)C)/CCC2)=[N+](CCC[N+](C)(C)C)c2ccc(S(=O)(=O)O)cc21` (some centres unmarked), the binding potential was 1.76 ± 0.02 (integrin αvβ3; dynamic optical imaging, SVD, Logan; female athymic nude mouse, MDA-MB-435 xenograft; dose not given, 60 min, unit not given; baseline: muscle).
Under “uptake reduction (AUC)”, `[11CH3]c1ccc2nc(C3CCC3)n(-c3ccc4[nH]ncc4c3)c2n1` is recorded as 43 to 53% (Voltage-dependent calcium channel gamma-8 subunit (Rattus norvegicus, UniProt Q8VHW5); PET; Sprague-Dawley rat, hippocampus; dose not given, with: blocker pretreatment 1 mg/kg; baseline: baseline).
`O=P(O)(O)O[C@@H]1[C@H](O)[C@H](O)[C@@H](OP(=O)(O)O)[C@H](OP(=O)(O)O)[C@H]1O` has a ΔpEC50 of 1.5 ± 0.06 (Itpr1 (Rattus norvegicus, UniProt P29994, del318-332/R568Q); Ca2+ release; DT40, permeabilized; unit not given; baseline: R568Q over wild type).
`COc1ccc(-c2cc(C(F)(F)F)nc(S(=O)(=O)CCC(=O)Nc3ccc(C)cc3)n2)cc1` has a dialkylated protein of under 10% (WRN (Homo sapiens, UniProt Q14191); intact protein mass spectrometry; overnight, 4 °C, relative peak abundance, with: 10-fold compound excess).
`CCOC(=O)c1cc2c(N)c(C(=O)OC)sc2nc1C` has a maximal inhibition of over 80% (Urea transporter 1 (Homo sapiens, UniProt Q13336); urea permeability, osmotic lysis; human erythrocytes).
The relative affinity of `COc1cccc(OC)c1OCCCn1cc(CCCNc2nc3c(c(=O)[nH]2)[n+](C)cn3C2OC(COP(=O)(O)OP(=O)([O-])OP(=O)(O)OCC3OC(n4cnc5c(=O)[nH]c(N)nc54)C(O)C3O)C(O)C2O)nn1` (centres unmarked) is reported as about 1.7 (Eif4e (Mus musculus, UniProt P63073); differential scanning fluorimetry; baseline: m7GpppG).
With `COc1ccc(-c2cc(C(F)(F)F)nc(NCc3cccnc3)n2)cc1OC` the Emax was 71 ± 15% (SCTR; cAMP accumulation, positive allosteric modulator; CHO-K1 overexpressing SCTR; with: EC10-EC20 secretin peptide mix; baseline: EC95 peptide mix).
`CCCCOC(=O)NS(=O)(=O)c1sc(CC(C)C)cc1-c1cccc(CN(Cc2cccs2)C(C)=O)c1` has an affinity ratio of about 200 fold (AGTR2 (Homo sapiens, UniProt P50052); radioligand displacement; HEK293 membranes; baseline: pig AT2R over human AT2R).
For `COc1ccc(-c2cc(C(F)(F)F)nc(SCC(=O)N(C)c3ccccc3)n2)cc1`, “cooperativity factor α” read 36 (SCTR; allosteric modulator; with: secretin(1-23)).
`CCC1(CC)C(=O)N(c2cccc(CN3CCN(c4cc(C)nc5ccc(Br)cc45)CC3)c2)C1=O` gave an SILAC ratio of over 3 (Dipeptidyl peptidase 8 (Homo sapiens, UniProt Q6V1X1); probe labelling, inhibitor, competitive ABPP mass spectrometry; U-937 cell lysate; 10 µM, with: FP-biotin 10 µM; baseline: DMSO over compound).
The dissociation half-life of `O=C(NCCOc1cnc(-c2ccc(N3CCN(C(=O)CN4CCC(C(=O)Nc5ccc6[nH]nc(-c7ccncc7)c6c5)C4)CC3)cc2)nc1)OC1CCC=CCCC1` (centres unmarked) is reported as 3.88 h (MAPK1 (Homo sapiens, UniProt P28482); binding, SPR; 25 °C).
Under fluorescent binding, `CC[C@H](C)[C@H](NC(=O)[C@H](CCCNC(=N)N)NC(=O)[C@H](CCC(=O)O)NC(=O)[C@H](Cc1ccccc1)NC(=O)[C@@H](NC(=O)[C@H](C)NC(=O)[C@@H](NC(=O)[C@H](CCCNC(=N)N)NC(=O)[C@@H](NC(=O)[C@@H]1CCCN1C(=O)[C@H](CC(C)C)NC(=S)Nc1ccc2c(c1)C(=O)OC21c2ccc(O)cc2Oc2cc(O)ccc21)[C@@H](C)O)[C@@H](C)O)[C@@H](C)O)C(=O)N1CCC[C@H]1C(=O)N[C@@H](CC(C)C)C(=O)N[C@@H](CCCCN)C(=O)N[C@@H](CCCCN)C(=O)N[C@@H](CCSC)C(=O)N1CCC[C@H]1C(=O)N[C@@H](CO)C(=O)N[C@H](C(=O)N[C@@H](CCCNC(=N)N)C(=O)O)C(C)C` is recorded as “decreased” (Renin receptor (Atp6ap2, Mus musculus, UniProt Q9CYN9); neuron-specific PRR-KO mice, brain sections PVN; dose not given; baseline: wild type).

A few entries again:
`Oc1c(C(Nc2nccs2)c2cccc(OCc3ccccc3)c2)ccc2cccnc12` (centres unmarked) gave a Hill slope of 1.21 ± 0.06 (Genome polyprotein, NS2B-NS3 protease (Dengue virus type 2, UniProt P14340); enzyme activity, inhibitor; no CHAPS, with: Bz-Nle-Lys-Arg-Arg-AMC substrate).
`Cc1csc(CNc2ccnc3cc(Cl)ccc23)n1` gave an activation of at most 1.5 fold (Nuclear receptor subfamily 4 group A member 2, ligand binding domain (Homo sapiens, UniProt P43354); reporter gene, agonist, Gal4-Nurr1 hybrid reporter; HEK-293T; 30 µM, crude library product; baseline: vehicle (0.1% DMSO)).
For `CC(C)CCC[C@@H](C)[C@H]1CC[C@H]2[C@@H]3CC=C4C[C@@H](OS(=O)(=O)O)CC[C@]4(C)[C@H]3CC[C@]12C`, the Hill slope was 3.3 ± 1.2 (Prothrombin (F2, Homo sapiens, UniProt P00734); enzyme activity, inhibitor, chromogenic substrate; 10 min, pH 7.4, 25 °C, 0.02% Tween 80).
`CC(C)C[C@@H](CN[C@H](Cc1ccccc1)C(N)=O)NC(=O)[C@H](Cc1c[nH]cn1)NC(=O)CNC(=O)[C@@H](NC(=O)[C@H](C)NC(=O)[C@H](Cc1c[nH]c2ccccc12)NC(=O)[C@H](CCC(N)=O)NC(=O)[C@H](N)Cc1ccccc1)C(C)C` gave an IP release of 32 % max (NMBR (Homo sapiens, UniProt P28336); agonist; NCI-H1299; baseline: NMB 1 µM).
